# Measurements collected from several papers.
# Compare with care: the assays were run in different laboratories. “And” joins repeats or separate records; there may be more than shown. Numbers after ± are the reported error.
Compound,assay,system,setting,scale,quantity,result
C=CC(=O)N1C[C@@H](n2nc(C#Cc3c(F)cc4c(ncn4C4CC4)c3F)c(C(N)=O)c2NC)C[C@@H]1COC,,"mouse, CCLP-1-FP-N550K xenograft","15 mg/kg daily, 28 days",,tumour growth inhibition,84%
CC[C@@H](C)[C@@H](NC(=O)[C@@H](Cc1ccc(O)cc1)NC(=O)[C@H]1CCCN1C(=O)[C@@H](CCCNC(=N)N)NC(=O)[C@H](N)Cc1c[nH]cn1)C(=O)N[C@H](C)C(=O)N[C@H](Cc1c[nH]cn1)C(=O)N[C@H](CCCNC(=N)N)C(=O)N[C@H](CCCCNC(=O)c1cccc(S(=O)(=O)F)c1)C(=O)N[C@H](Cc1ccc(O)cc1)C(=O)N[C@H](CO)C(=O)N[C@H](Cc1ccccc1)C(N)=O,,mouse orthotopic GL261-Luc glioma,"intraperitoneal, 3.9 mg/kg",,tumour regression rate,50%
O=C([O-])CN1CCN(CC(=O)[O-])CCN(CC(=O)NCC2CCC(C(=O)N[C@@H](Cc3ccc4ccccc4c3)C(=O)NCCCC[C@H](NC(=O)N[C@@H](CCC(=O)O)C(=O)O)C(=O)O)CC2)CCN(CC(=O)[O-])CC1.[177Lu+3] (some centres unmarked),,mouse 22Rv1 xenograft,"intravenous, 14.8 MBq",,tumour growth inhibition,73.4%
C[C@]12CC[C@H](O)C[C@H]1CC[C@@H]1[C@@H]2CC[C@]2(C)[C@@H](c3ccc(=O)oc3)CC[C@]12O,,female nude mouse LCC2 xenograft,"1.0 mg/kg, day 13, tamoxifen-resistant",,tumour volume,29.8 mm3 and 63.1 mm3 and 47.4 mm3 and 41.1 mm3 and 48.1 mm3 and 46.4 mm3 and 59.2 mm3
Cc1n[nH]cc1-c1cc2nc([C@@H]3CC4CCN3CC4)[nH]c(=O)c2s1,,mouse COLO 205 xenograft,"oral, 20 mg/kg twice daily, 21 days",,tumour volume,493 ± 58 mm3
C[C@]12CC[C@H](O)CC1=CC[C@@H]1[C@@H]2CC[C@]2(C)C(n3cnc4ccccc43)=CC[C@@H]12.Cl,,mouse CWR22Rv1 xenograft,"oral, 48 mg/kg once daily, 16 days, 5 days per week",,tumour growth inhibition,137%
O=C1[O][Pt]2([NH][C@@H]3CCCC[C@H]3[NH]2)[O]C1=O,,NSG mouse HCT-116 xenograft,"intraperitoneal, 7.5 mg/kg",,tumour weight,0.55 g and 0.706 g and 1.03 g and 0.387 g and 0.642 g
CC1(C)CN(CCCCC(=O)N[C@H](Cc2ccc(O)c(I)c2)C(=O)N[C@H](Cc2ccccc2)C(=O)N[C@H](CCCCNC(=O)CCCCCCC(=O)NCCCC[C@H](NC(=O)N[C@@H](CCC(=O)O)C(=O)O)C(=O)O)C(=O)O)CC[N]2CC(C)(C)[S][Tc]2(=[O])[S]1 (some centres unmarked) [technetium-99m labelled],SPECT/PET imaging,"mouse, subcutaneous LNCaP tumour, tumour","dose not given, 4 h post-injection",,tumour uptake,decreased
C[C@]12CC[C@H](n3ccnc3)CC1=CC[C@@H]1[C@@H]2CC[C@]2(C)C(n3cnc4ccccc43)=CC[C@@H]12,,mouse CWR22Rv1 xenograft,"oral, 20 mg/kg once daily, 16 days, 5 days per week",,tumour growth inhibition,83.8%
COc1cc2c3c(n(CCCN4CCOCC4)c(=O)c2cc1OC)-c1cc2c(cc1C3=O)OCO2,bioluminescence imaging,"GL261-Luc, mouse orthotopic glioblastoma","intravenous, 25 mg/kg, day 21",baseline: control,tumour growth reduction,75.6%
N.N.[Cl][Pt][Cl],,nude mouse NCI-H460 xenograft,3 mg/kg,,tumour growth inhibition,~80%

# Repeated from above:
Compound,assay,system,setting,scale,quantity,result
O=C([O-])CN1CCN(CC(=O)[O-])CCN(CC(=O)NCC2CCC(C(=O)N[C@@H](Cc3ccc4ccccc4c3)C(=O)NCCCC[C@H](NC(=O)N[C@@H](CCC(=O)O)C(=O)O)C(=O)O)CC2)CCN(CC(=O)[O-])CC1.[177Lu+3] (some centres unmarked),,mouse 22Rv1 xenograft,"intravenous, 14.8 MBq",,tumour growth inhibition,73.4%
